# Measured values gathered from unrelated publications.
Structure (SMILES),test system,conditions,Tmax
CCn1c2ccccc2c2cc(-n3nncc3-c3ccccc3)ccc21,"female BALB/c mouse, spleen","intraperitoneal, 10 mg/kg, single dose",0.5 h
CC1=C2C[C@H]3[C@@H](CC[C@@H]4C[C@H](NS(C)(=O)=O)CC[C@@]43C)[C@@H]2CC[C@@]2(C1)O[C@@H]1C[C@H](C)CN[C@H]1[C@H]2C,"patients, plasma","oral, 30 mg daily, day 22, cycle 1",5.05 h
CNc1nc(Nc2ccc(-n3cnc(C)n3)c(OC)c2)nc2c1CC[C@H]2c1ccc(F)cc1,"human, plasma","oral, 100 mg, single dose, healthy volunteers",4 h
COc1cccc(-c2n[nH]c(SCc3ccccn3)n2)c1OC,"Sprague-Dawley rat, both sexes, plasma","oral, diet, 30 mg/kg/day, day 7",6 h
CC(=O)N[C@H]1CC[C@H](NC(=O)CN2CCN(c3nncc(-c4ccc(C)cc4)n3)CC2)CC1,"human, plasma","oral, 200 mg, single dose, fasted, healthy volunteers",1.3 h
CCCOc1ccc([C@H]2CNC(=O)N2c2ccc3[nH]cnc3c2)cc1,"human, plasma","oral, 50 mg, single dose, fasted",0.5 h
C#C[C@]1(CO)O[C@@H](n2cnc3c(N)nc(F)nc32)C[C@@H]1O,"human, plasma","oral, 200 mg, single dose, fasted",0.5 h
CCN1CCN(c2ccc(Nc3cc(N(C)C(=O)Nc4c(Cl)c(OC)cc(OC)c4Cl)ncn3)cc2)CC1,"Crl:WI(Han) rat, juvenile male, plasma","oral gavage, 0.3 mg/kg/day, postnatal day 17",3 h
CS(=O)(=O)c1ccc(-c2cnc(N)c(-c3ccc(C(F)(F)F)nc3)c2)cc1,"pregnant female Sprague-Dawley rat, plasma","oral, 3 mg/kg/day, gestation day 6",4 h
CCCC[C@H](NC(C)=O)C(=O)N[C@H]1CCC(=O)NC[C@@H](C(=O)N[C@@H](Cc2c[nH]c3ccccc23)C(N)=O)NC(=O)[C@H](CCCNC(=N)N)NC(=O)[C@@H](Cc2ccccc2)NC(=O)[C@H](Cc2c[nH]cn2)NC1=O,"beagle dog, male, plasma","subcutaneous, 1.5 mg/kg daily, day 1",1.1 h
Nc1ncc(-c2cnn(CCO)c2)c2scc(-c3ccc(NC(=O)Nc4cccc(F)c4)cc3)c12,"human, plasma","oral, 540 mg, patients",3.3 h
Cc1nc2cccc(OCC(C)(C)C(=O)NC(C)C)c2c(N)c1C(=O)O,"male Sprague-Dawley rat, plasma","oral gavage, 100 mg/kg, day 1",0.33 h
CNC(=O)c1ccccc1Nc1cc(Nc2ccc(N3CCOCC3)cc2OC)ncc1C(F)(F)F,"BALB/c mouse, plasma","intraperitoneal, 100 mg/kg, single dose",≤ 0.5 h
C[C@@H]1CCC[C@H](n2cnc(-c3cc(Cl)ccc3-n3cc(Cl)nn3)cc2=O)c2cc(ccn2)-c2c(cnn2C(F)F)NC1=O,"human, plasma","oral, 60 mg, single dose, fasted, healthy volunteers",3 h
